Measured values of several laboratories.
A part holds a random share of what one study measured.
Sequence of UniProt Q5S007 (whole entry, unmodified, looked up): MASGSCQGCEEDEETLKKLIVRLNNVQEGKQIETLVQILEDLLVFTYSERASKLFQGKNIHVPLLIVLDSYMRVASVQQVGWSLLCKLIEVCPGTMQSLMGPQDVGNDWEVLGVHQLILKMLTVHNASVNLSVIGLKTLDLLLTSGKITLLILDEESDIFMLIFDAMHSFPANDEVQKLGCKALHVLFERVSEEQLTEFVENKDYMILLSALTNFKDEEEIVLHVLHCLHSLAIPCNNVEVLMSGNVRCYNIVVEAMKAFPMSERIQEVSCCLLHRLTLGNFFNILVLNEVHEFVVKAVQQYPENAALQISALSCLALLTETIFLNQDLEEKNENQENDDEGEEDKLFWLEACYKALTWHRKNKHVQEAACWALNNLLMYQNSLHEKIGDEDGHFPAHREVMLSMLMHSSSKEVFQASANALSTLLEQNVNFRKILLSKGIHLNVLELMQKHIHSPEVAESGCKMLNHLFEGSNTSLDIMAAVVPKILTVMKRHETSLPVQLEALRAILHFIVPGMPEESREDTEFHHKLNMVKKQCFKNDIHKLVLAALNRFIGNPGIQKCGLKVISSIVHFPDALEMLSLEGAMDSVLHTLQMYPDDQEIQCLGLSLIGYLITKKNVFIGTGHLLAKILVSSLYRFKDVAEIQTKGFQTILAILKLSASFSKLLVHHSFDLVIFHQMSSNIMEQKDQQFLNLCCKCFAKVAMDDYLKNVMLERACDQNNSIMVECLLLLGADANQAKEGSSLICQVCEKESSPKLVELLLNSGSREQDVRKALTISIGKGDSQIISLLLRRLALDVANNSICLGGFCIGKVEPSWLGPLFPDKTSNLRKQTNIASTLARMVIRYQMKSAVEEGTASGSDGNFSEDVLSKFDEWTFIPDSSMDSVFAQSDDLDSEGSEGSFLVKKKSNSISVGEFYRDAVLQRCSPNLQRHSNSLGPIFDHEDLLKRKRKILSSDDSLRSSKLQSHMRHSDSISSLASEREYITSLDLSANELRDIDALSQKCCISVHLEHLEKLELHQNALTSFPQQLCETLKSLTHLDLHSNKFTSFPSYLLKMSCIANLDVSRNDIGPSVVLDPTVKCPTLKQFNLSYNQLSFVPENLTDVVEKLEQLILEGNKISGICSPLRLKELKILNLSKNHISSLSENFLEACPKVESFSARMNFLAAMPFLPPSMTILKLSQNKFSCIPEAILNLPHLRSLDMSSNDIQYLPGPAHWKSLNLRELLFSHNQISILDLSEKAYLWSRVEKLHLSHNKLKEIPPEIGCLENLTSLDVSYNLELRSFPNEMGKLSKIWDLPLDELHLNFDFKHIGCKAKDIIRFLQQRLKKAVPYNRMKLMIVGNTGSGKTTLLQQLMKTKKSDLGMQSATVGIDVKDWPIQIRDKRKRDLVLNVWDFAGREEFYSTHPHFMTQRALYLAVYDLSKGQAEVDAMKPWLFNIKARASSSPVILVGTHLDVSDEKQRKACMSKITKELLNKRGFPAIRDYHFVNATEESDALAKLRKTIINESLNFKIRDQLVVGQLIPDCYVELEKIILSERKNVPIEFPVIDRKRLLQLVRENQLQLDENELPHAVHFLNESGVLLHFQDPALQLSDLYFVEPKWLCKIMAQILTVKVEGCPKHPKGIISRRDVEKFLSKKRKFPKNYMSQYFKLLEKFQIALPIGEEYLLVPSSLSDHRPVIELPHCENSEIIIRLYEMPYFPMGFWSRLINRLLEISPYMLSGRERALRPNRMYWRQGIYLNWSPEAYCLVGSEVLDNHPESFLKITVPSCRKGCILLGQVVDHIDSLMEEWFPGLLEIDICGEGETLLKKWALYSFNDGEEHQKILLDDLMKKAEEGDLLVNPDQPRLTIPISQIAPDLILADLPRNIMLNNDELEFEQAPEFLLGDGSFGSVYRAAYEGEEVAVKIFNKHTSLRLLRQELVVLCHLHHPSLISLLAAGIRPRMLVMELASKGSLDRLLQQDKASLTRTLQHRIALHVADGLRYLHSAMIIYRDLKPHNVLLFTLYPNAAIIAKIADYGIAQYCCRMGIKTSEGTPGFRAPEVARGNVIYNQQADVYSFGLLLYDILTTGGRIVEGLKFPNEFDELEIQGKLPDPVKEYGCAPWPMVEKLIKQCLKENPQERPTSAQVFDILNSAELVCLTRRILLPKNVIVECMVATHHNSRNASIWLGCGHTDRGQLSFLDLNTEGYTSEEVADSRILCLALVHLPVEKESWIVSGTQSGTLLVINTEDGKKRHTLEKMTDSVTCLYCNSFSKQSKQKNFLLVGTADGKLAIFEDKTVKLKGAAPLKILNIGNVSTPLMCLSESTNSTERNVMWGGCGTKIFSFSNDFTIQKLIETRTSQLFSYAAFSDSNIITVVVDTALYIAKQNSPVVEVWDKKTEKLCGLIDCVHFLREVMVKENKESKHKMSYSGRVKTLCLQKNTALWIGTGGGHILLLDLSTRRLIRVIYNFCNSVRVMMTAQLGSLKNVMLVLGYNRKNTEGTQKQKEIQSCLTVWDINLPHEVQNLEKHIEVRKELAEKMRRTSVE
Sequence of UniProt P51812 (whole entry, looked up): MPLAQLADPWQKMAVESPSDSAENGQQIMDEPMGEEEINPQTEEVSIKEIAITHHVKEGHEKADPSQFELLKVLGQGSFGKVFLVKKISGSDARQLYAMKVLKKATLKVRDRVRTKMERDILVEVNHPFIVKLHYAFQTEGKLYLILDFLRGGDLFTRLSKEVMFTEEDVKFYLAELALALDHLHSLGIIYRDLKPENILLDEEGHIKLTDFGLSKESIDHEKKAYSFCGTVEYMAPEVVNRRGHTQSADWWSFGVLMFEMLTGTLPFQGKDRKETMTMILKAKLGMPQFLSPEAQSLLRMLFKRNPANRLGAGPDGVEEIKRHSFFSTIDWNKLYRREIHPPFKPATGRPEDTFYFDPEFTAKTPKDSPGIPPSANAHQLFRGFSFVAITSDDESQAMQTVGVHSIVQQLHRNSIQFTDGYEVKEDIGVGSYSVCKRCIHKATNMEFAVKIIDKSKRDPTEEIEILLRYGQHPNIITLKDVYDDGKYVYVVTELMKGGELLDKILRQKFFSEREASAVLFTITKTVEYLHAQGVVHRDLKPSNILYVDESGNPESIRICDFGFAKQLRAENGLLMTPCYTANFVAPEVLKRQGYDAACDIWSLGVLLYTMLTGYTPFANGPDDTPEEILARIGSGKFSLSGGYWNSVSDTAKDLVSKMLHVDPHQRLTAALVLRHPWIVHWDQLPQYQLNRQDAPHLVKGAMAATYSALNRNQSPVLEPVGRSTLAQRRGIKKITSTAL

Sample 1
Target: Prothrombin, mature alpha-thrombin (F2, Homo sapiens, UniProt P00734)
Method: aptamer microarray, sandwich
Molecule type: DNA with 2'F-ANA
Matrix: in vitro
Concentration: 200 nM
Notes: whole 15-mer aptamer, many near background
With: Cy3 exosite-II aptamer, 400 nM
Reading: higher = stronger binding
Sequence: GGTTGGTGTGGTTGG
`2'F-ANA at 1 4 6 9 11 13 14`: “mean fluorescence intensity” 46.5 a.u.
`2'F-ANA at 3 4 5 7 8 9 10 13`: “mean fluorescence intensity” 48.3 a.u.
`2'F-ANA at 2 3 5 6 9 13 15` — result for “mean fluorescence intensity”: 60.2 a.u.
Under “mean fluorescence intensity”, `2'F-ANA at 2 5 6 9 11 12 14 15` is recorded as 43.7 a.u.
`2'F-ANA at 6 8 13` — result for “mean fluorescence intensity”: 462 a.u.
For `2'F-ANA at 1 3 4 14 15`, “mean fluorescence intensity” read 78.9 a.u.
`2'F-ANA at 1 2 3 4 5 8 11 14 15`: “mean fluorescence intensity” 43.2 a.u.
`2'F-ANA at 3 5 7 8 11 13 14`: “mean fluorescence intensity” 61.5 a.u.

Sample 2
Target: Myc proto-oncogene protein, bHLH-zipper, MAX partner unstated (MYC, Homo sapiens, UniProt P01106, residues 368-449)
Sequence of UniProt P01106 (368-449, looked up): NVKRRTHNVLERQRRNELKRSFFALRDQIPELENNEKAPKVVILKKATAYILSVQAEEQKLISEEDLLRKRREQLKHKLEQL
Method: protein-binding microarray
Molecule type: double-stranded DNA, one strand shown
Matrix: in vitro
Concentration: not given
Notes: k-mer, scored over probes, only values ≥0.25
Reading: higher = stronger binding
For `AACATGCG`, the E-score was 0.43.
`ATTGCACG` has an E-score of 0.329.
With `AGGCACGC` the E-score was 0.375.
For `AAACCACG`, the E-score was 0.411.
The E-score of `CACGAGCC` is reported as 0.324.
The E-score of `AGCGTGGG` is reported as 0.404.
For `CCTCGAGG`, the E-score was 0.407.
The E-score of `AGGGCGTG` is reported as 0.31.

Sample 3
Compound: CS(=O)(=O)N1CCCC(NC(=O)[C@H](CCC2CCCCC2)NC(=O)c2ccc(CNc3ncnc4c3nnn4-c3ccccc3)cc2)C1 (some centres unmarked)
Method: competition with immobilised ligand
Concentration: 0.1 µM
It gave 70% for remaining binding (RAF1 (Homo sapiens, UniProt P04049); cell-free assay).
ALK (Homo sapiens, UniProt Q9UM73, C1156Y); cell-free assay — remaining binding: 100%.
LRRK2 (Homo sapiens, UniProt Q5S007, G2019S); cell-free assay — remaining binding: 100%.
RIPK2 (Homo sapiens, UniProt O43353); cell-free assay — remaining binding: 59%.
The remaining binding was 100% (Ribosomal protein S6 kinase alpha-3, N-terminal kinase domain (RPS6KA3, Homo sapiens, UniProt P51812); cell-free assay).
For CDK11A (Homo sapiens, UniProt Q9UQ88); binding: remaining binding read 87%.
Tyrosine-protein kinase ABL1, non-phosphorylated (ABL1, Homo sapiens, UniProt P00519); cell-free assay — remaining binding: 88%.
For MKNK2 (Homo sapiens, UniProt Q9HBH9); cell-free assay: remaining binding read 100%.
The remaining binding was 79% (PRKG2 (Homo sapiens, UniProt Q13237); cell-free assay).
TLK1 (Homo sapiens, UniProt Q9UKI8); cell-free assay — remaining binding: 94%.
Tyrosine-protein kinase ABL1, non-phosphorylated (ABL1, Homo sapiens, UniProt P00519, H396P); cell-free assay — remaining binding: 99%.

Sample 4
Target: Rho-associated protein kinase 1 (ROCK1, Homo sapiens, UniProt Q13464)
Sequence of UniProt Q13464 (whole entry, looked up): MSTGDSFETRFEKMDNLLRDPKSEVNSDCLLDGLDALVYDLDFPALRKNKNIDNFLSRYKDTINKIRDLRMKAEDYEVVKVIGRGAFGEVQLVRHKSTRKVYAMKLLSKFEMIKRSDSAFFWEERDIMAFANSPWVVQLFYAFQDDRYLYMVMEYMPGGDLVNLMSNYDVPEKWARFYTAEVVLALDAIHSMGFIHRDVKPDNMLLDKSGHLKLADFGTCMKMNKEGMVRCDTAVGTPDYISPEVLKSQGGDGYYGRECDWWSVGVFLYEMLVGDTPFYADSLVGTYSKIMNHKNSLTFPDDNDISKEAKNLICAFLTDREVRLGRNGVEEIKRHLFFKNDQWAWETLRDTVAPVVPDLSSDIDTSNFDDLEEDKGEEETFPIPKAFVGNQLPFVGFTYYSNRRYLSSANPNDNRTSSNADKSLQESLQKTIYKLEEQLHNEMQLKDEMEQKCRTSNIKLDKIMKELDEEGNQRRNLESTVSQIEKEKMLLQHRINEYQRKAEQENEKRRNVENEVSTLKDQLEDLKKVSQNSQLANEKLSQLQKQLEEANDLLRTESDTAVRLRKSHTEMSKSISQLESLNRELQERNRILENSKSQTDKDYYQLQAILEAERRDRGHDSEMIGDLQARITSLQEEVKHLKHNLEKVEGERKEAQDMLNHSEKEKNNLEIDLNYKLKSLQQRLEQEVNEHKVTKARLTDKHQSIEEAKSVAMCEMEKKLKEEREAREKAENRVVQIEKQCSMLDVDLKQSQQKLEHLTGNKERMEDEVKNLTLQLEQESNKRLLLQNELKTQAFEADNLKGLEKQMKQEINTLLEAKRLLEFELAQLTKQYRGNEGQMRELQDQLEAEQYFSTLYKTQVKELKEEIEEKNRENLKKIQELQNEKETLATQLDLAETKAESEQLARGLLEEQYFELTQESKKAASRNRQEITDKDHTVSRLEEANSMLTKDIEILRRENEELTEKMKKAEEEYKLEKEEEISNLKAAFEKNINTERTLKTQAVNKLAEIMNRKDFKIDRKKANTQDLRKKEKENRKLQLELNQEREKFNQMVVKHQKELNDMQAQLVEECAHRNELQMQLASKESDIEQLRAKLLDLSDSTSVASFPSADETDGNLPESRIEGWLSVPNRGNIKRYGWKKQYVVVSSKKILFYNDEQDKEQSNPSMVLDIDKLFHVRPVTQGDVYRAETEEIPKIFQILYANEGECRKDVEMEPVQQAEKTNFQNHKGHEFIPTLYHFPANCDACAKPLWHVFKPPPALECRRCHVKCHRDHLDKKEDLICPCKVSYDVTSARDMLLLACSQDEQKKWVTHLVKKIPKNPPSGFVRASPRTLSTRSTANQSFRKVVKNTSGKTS
Effect on: enzyme activity
Action: inhibitor
Concentration: 0.5 µM
Baseline: control
`Oc1ccc(-c2nc(-c3ccncc3)c(-c3ccc(F)cc3)[nH]2)cc1` has a remaining activity of 101%.
For `COc1cc2ncnc(Nc3ccc(F)c(Cl)c3)c2cc1OCCCN1CCOCC1`, the remaining activity was 106%.
For `O=C1NC(=O)C(c2cn(CCCO)c3ncccc23)=C1c1cnccn1`, the remaining activity was 90.2%.
For `COc1ccc(OC)c2c(=S)c3ccccc3[nH]c12`, the remaining activity was 97.8%.
`COc1cc2nccc(Oc3ccc(NC(=S)NC(=O)c4ccccc4C)cc3)c2cc1OC` gave a remaining activity of 90.5%.
For `OCC(O)CCON=C1C(c2c(O)[nH]c3ccccc23)=Nc2ccccc21` (centres unmarked), the remaining activity was 101%.
The remaining activity of `Cc1ccc(Nc2nccc(N(C)c3ccc4c(C)n(C)nc4c3)n2)cc1S(N)(=O)=O` is reported as 100%.
`COc1ccc(C(=O)Nc2sc3c(c2C(N)=O)CCCC3)cc1OC` has a remaining activity of 107%.
The remaining activity of `O=C1NC(=O)C(c2cn(CCCn3ccnc3)c3ccccc23)=C1Nc1ccccc1` is reported as 99.2%.
For `O=C(O)c1ccc2c3c1cccc3c(=O)n1c3ccccc3nc21`, the remaining activity was 104%.
With `CN(C)c1ccc(C=C2C(=O)Nc3ccccc32)cc1` the remaining activity was 98.3%.
The remaining activity of `O=c1c2ccccc2[nH]c(=S)n1CCN1CCC(=C(c2ccc(F)cc2)c2ccc(F)cc2)CC1` is reported as 97.2%.
`Cc1cccc(-c2[nH]c(C(C)(C)C)nc2-c2ccc3c(c2)OCO3)n1` gave a remaining activity of 101%.
`Nc1ccc2ncnc(NCCc3ccc(Oc4ccccc4)cc3)c2c1` has a remaining activity of 94.4%.
